# Measured values gathered from unrelated publications.
# Numbered parts are unrelated; each lists some results of a single study. Positions count from the first letter of the parent shown.
# Chain of UniProt O15264 (whole entry, looked up): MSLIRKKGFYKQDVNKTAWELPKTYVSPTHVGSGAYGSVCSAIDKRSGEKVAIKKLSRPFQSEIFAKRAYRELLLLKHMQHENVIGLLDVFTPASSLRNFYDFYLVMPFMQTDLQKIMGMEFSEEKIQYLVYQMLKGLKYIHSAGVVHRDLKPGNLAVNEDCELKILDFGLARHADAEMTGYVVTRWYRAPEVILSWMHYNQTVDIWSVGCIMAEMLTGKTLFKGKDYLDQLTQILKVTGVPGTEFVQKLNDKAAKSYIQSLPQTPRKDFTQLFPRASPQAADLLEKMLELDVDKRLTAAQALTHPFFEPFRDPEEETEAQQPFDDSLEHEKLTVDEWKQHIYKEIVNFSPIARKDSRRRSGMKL
# Chain of UniProt P48736 (whole entry, looked up): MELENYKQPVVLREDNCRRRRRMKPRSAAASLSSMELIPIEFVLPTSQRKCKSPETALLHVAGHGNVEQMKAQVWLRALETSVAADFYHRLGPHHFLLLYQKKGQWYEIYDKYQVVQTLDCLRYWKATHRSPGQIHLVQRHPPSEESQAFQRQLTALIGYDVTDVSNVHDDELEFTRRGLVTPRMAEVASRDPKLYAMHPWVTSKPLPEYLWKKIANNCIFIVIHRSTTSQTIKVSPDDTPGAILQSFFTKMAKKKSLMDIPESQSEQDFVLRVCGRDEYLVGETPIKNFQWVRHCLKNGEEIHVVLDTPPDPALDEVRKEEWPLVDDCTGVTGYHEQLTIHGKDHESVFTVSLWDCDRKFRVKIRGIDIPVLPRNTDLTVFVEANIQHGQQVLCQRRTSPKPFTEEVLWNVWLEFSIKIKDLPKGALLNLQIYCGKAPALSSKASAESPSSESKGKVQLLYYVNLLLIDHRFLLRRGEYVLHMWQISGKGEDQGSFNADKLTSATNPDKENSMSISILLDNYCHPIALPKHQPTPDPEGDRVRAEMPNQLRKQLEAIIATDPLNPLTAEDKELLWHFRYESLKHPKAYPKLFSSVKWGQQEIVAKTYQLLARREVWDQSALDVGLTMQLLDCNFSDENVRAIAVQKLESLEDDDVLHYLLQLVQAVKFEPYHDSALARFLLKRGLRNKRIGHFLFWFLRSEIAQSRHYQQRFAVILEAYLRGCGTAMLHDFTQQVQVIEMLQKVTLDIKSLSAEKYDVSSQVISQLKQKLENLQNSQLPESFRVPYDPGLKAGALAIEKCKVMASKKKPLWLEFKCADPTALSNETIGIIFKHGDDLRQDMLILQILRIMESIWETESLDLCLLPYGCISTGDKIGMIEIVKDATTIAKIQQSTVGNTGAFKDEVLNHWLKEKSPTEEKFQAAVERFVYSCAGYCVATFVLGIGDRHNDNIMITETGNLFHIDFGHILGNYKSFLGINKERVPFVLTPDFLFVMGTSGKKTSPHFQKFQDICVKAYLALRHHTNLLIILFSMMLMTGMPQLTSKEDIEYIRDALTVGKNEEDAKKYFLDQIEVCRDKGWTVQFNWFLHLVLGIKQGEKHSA
# Chain of UniProt P06239 (whole entry, looked up): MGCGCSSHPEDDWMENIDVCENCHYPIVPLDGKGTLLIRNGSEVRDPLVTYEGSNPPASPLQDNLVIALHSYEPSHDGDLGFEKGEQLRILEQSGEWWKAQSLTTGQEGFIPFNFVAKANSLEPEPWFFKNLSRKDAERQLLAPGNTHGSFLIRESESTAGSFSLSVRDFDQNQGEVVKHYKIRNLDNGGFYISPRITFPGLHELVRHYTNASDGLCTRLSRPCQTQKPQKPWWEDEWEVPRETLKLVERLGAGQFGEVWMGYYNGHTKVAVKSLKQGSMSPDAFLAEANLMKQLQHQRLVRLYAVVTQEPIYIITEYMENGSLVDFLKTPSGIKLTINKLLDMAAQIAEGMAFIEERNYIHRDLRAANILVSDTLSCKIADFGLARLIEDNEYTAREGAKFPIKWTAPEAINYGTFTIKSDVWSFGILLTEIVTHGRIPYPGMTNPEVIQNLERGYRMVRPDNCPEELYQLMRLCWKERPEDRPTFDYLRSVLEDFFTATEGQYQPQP
# Chain of UniProt O60674 (whole entry, looked up): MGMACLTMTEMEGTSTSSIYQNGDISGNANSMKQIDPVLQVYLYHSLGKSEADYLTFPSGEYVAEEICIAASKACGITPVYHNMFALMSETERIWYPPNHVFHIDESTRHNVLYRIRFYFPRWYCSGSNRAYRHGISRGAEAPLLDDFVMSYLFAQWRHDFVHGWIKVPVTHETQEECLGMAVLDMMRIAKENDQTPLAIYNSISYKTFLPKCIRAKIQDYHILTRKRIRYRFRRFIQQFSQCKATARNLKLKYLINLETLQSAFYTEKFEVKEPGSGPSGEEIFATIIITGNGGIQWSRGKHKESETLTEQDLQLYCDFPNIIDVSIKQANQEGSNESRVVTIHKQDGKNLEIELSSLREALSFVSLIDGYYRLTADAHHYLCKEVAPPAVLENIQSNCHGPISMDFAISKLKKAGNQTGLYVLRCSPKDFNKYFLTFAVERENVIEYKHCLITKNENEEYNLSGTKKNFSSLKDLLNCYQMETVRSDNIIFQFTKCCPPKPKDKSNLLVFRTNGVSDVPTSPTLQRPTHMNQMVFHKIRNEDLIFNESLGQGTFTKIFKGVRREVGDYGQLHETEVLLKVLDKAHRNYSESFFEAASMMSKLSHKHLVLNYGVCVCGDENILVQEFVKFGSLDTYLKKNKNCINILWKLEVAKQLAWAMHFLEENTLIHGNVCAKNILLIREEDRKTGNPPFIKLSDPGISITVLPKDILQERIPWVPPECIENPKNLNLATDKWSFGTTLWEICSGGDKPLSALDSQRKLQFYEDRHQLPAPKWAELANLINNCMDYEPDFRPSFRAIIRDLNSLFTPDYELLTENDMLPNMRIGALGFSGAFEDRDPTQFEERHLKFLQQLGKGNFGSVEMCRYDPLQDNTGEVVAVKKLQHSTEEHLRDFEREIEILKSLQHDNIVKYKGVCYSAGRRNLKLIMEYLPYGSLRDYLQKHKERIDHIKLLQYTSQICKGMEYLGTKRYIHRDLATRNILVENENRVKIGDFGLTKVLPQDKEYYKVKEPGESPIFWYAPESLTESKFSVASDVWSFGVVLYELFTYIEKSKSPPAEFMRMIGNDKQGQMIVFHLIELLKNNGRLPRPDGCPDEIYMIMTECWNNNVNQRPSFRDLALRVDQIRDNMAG
# Chain of UniProt P22607 (whole entry, unmodified, looked up): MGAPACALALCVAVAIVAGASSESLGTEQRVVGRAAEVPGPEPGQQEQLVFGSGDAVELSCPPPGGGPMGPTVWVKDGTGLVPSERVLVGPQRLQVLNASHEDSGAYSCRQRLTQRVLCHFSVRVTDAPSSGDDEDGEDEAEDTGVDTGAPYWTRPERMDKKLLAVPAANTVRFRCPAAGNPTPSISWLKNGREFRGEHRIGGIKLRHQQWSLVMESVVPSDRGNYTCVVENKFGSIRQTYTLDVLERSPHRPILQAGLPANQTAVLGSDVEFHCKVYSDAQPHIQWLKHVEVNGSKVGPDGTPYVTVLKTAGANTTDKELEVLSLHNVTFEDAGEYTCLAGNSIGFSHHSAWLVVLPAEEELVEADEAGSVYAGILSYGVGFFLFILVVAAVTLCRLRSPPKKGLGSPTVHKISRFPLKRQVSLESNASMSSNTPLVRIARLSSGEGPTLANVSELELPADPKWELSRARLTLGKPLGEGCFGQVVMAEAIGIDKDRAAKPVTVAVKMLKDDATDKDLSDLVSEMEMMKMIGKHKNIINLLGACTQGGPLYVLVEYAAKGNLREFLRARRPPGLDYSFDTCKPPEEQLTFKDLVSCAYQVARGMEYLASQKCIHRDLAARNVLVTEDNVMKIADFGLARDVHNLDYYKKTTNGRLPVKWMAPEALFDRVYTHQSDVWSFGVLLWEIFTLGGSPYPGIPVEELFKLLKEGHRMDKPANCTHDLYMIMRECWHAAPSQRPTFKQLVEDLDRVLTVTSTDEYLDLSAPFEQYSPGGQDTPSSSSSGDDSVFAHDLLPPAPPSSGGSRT
# Chain of UniProt P23443 (whole entry, looked up): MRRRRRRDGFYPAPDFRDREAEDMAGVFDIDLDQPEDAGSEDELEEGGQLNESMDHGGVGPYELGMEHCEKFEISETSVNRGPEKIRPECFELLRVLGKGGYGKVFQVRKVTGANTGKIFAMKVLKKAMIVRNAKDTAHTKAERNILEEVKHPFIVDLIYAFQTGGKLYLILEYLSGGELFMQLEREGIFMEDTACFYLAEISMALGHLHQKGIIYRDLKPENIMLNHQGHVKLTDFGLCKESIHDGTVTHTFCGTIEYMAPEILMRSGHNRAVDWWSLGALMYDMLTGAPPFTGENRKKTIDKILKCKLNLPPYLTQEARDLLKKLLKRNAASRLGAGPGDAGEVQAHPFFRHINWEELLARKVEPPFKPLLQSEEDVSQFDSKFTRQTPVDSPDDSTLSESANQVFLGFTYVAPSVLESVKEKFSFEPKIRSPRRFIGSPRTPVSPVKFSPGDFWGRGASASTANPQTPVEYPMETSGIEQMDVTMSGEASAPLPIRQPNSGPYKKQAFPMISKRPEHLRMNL
# Chain of UniProt P49761 (whole entry, looked up): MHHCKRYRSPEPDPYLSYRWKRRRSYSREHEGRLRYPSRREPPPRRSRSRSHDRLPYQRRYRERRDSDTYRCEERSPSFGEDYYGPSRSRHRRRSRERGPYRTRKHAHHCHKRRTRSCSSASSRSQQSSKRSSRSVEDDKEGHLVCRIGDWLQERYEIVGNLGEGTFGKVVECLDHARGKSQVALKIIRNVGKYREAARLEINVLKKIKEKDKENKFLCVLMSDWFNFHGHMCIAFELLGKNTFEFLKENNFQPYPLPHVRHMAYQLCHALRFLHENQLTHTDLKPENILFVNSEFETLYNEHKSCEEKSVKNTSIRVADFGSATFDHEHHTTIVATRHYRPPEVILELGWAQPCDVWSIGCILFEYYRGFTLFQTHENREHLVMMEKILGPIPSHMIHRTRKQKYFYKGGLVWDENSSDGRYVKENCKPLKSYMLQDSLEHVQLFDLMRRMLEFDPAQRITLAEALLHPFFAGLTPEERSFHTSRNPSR

# Set 1
# SMILES: CNC(=O)Nc1ccc2c(c1)CC[C@@]21OC(=O)N(CC(=O)N(Cc2ccc(F)cc2)[C@@H](C)C(F)(F)F)C1=O
# Effect on: cell-free assay
# Method: competition with immobilised ligand
# Tested at: 1 µM
target,remaining binding [%]
"Ribosomal protein S6 kinase alpha-1, N-terminal kinase domain (RPS6KA1, Homo sapiens, UniProt Q15418)",86
"TGFBR2 (Homo sapiens, UniProt P37173)",90
"CLK3 (Homo sapiens, UniProt P49761)",83
"LCK (Homo sapiens, UniProt P06239)",84
"FGFR3 (Homo sapiens, UniProt P22607, G697C)",79
"RIOK2 (Homo sapiens, UniProt Q9BVS4)",67
"Tyrosine-protein kinase ABL1, non-phosphorylated (ABL1, Homo sapiens, UniProt P00519, Q252H)",72
"MAPK13 (Homo sapiens, UniProt O15264)",83
"Tyrosine-protein kinase JAK2, JH1 (JAK2, Homo sapiens, UniProt O60674)",83
"RPS6KB1 (Homo sapiens, UniProt P23443)",100
"PHKG2 (Homo sapiens, UniProt P15735)",97
"PIK3CG (Homo sapiens, UniProt P48736)",95

# Set 2
# Target: Interferon regulatory factor 3, full length, phosphomimetic (IRF3, Homo sapiens, UniProt Q14653, residues 1-427, S386D/S396D/S398D/S402D/T404D/S405D)
# Method: protein-binding microarray
# Form: double-stranded DNA, one strand shown
# Matrix: in vitro
# Tested at: 2540 nM top
# Notes: 60-bp whole probe
# With: salmon DNA 0.4 mg/ml
# Reference: random background probes
# Reading: higher = stronger binding
# All sequences stand within: GCCTAGCAC … GTGCTAGGTCTTGATTCGCTTGACGCTGCTG
# Target sequence (chain): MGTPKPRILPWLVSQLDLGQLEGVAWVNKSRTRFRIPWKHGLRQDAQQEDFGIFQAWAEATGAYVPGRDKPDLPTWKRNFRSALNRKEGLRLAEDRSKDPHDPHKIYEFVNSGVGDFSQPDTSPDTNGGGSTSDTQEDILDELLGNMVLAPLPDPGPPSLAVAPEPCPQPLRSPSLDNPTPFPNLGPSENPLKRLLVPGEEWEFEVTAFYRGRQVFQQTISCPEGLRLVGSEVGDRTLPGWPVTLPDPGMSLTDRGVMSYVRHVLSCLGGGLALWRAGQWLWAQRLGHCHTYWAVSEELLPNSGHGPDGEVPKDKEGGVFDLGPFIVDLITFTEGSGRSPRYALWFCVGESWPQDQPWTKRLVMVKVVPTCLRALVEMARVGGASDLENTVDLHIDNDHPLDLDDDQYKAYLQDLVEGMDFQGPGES
Sequence,fitted relative affinity
GACGATTCCAGTTTCGAGCC,2.13 z-score
TTTCCTTCCTCTTTTACCCC,8.49 z-score
ACCCATTGAGATTTCCATTA,0.918 z-score
TCAGTTATCCATCTCAAACT,3.77 z-score
GGTCCAACAAACAGATCCAT,0.279 z-score
TTAGGTATCGGGTTCGGTTA,2.18 z-score
GACGAACTGAGACTGGCGAC,-0.319 z-score
TTAGGACTGGGTATCGGTTC,1.2 z-score

# Set 3
# Target: CRIPT, C-terminal peptide
# Method: DHFR complementation, deep sequencing
# Matrix: yeast
# Notes: single substitutions, model-inferred values
# Reference: wild type
# Reading: higher = weaker binding
# Starting sequence: ERBIN, PDZ domain 1 (human); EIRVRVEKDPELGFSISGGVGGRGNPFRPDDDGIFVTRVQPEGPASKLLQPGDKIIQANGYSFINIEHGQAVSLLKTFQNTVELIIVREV; partner TKNYKQTSV
Substitution,binding free energy change [kJ/mol]
S73A,-0.177
L12C,-1.43
V20T,-0.114
V90H,-0.0497
R3F,0.111
E11R,1.58
F78V,1.1
G60N,0.405

# Further values, each from its own experiment
# Organism: Plasmodium berghei
# Mode: inhibitor
# Cell line: Huh-7
# Strain: GFP-expressing sporozoites, liver stage
# Tested at: 10 µM
# Time: 24 h
# Reference: untreated control
Compound,infection rate
CC(=O)Nc1ccc(O)cc1,112%
NCC(=O)CCC(=O)O,113%

# For quick reference, copied from above (set 3):
Substitution,binding free energy change [kJ/mol]
E11R,1.58
V20T,-0.114
S73A,-0.177
L12C,-1.43
